Assay results collected from several papers.
Numbered parts are unrelated; each lists some results of a single study. Positions count from the first letter of the parent shown.

Block 1
Target: Sal-like protein 4, full length isoform B (SALL4, Homo sapiens, UniProt Q9UJQ4-2, residues 1-616)
Technique: universal PBM
Form: double-stranded DNA, one strand shown
Medium: in vitro
Tested at: not given
Setting: 8-mer, flanks averaged, mean of replicates
Direction: higher = stronger binding
| Strand | E-score |
| --- | --- |
| AATCTTGA | 0.156 |
| ACCCAGGG | -0.307 |
| AAGGCTAA | 0.0125 |
| CTGTGTCA | -0.0553 |
| CGCACCAA | -0.138 |
| CGTGGCTA | -0.0564 |
| CGACTCCA | -0.265 |
| GTTGCATA | 0.115 |
| CATTTGTA | 0.285 |
| AAGGGGAT | -0.0174 |
| CAATCGGC | -0.157 |
| AGGCCGTC | -0.353 |
| CTTGTCCC | -0.162 |
| AAAGAATG | 0.241 |
| ACCGCTGA | -0.107 |
| TCTGATAA | 0.132 |
| AATAGCTA | 0.239 |
| TGATACCA | 0.133 |
| AAACTGAG | -0.155 |
| TCCTGGAA | -0.21 |

Block 2
Target: Interferon regulatory factor 7, full length, phosphomimetic (IRF7, Homo sapiens, UniProt Q92985, residues 1-503, S101K/S471D/S472D/S475D/S476D/S477D/S483D/S484D/S487D)
Sequence of UniProt Q92985 (whole entry, unmodified, looked up): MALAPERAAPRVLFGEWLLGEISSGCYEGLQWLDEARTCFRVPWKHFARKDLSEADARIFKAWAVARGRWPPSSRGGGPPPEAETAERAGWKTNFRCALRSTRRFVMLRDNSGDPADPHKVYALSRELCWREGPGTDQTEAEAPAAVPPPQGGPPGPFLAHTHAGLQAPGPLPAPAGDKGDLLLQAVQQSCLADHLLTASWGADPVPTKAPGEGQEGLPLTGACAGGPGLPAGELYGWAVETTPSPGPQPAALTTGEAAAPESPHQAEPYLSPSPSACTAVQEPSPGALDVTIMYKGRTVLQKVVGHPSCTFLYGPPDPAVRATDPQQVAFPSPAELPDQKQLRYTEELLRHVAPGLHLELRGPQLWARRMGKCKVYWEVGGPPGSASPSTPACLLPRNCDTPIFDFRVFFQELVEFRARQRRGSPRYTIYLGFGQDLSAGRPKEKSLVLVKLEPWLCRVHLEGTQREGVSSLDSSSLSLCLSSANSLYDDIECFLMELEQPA
Technique: protein-binding microarray
Form: double-stranded DNA, one strand shown
Medium: in vitro
Tested at: 250 nM
Setting: 60-bp whole probe
Added: salmon DNA 0.4 mg/ml
Relative to: random background probes
Direction: higher = stronger binding
Shared flanks, not repeated: GCCTAGCAC … GTCTTGATTCGCTTGACGCTGCTG
| Strand | log fluorescence [z-score] |
| --- | --- |
| ACTAGTGTTTTTCTCCTATTGTGCTAG | 0.176 |
| TTAGCTTTCGGTTTCGGTTAGTGCTAG | 10.8 |
| GACTGTTTCGGTATCGGGACGTGCTAG | 4.8 |
| GACGGTCTCCTACTGTTGACGTGCTAG | -0.0575 |
| TTAGATTTCAGACTGCATTAGTGCTAG | 0.0751 |
| ATCCTTGTCCCTCCGGGAGCGTGCTAG | 0.398 |
| GACGGGCTGGACTATCGGGACGTGCTA | -1.09 |
| TCATTTTCCCCCCTCACACTGTGCTAG | 2.46 |
| TTAGAACTGGGGTTACGATTAGTGCTA | -0.285 |
| TCAGAAATCAACTTTTTTACTGTGCTA | -0.433 |
| GACCGTCTCGGTATCGGGACGTGCTAG | 0.913 |
| GACGATCTCAGATTGGAGACGTGCTAG | -0.111 |
| TCATCTTTCCCTGCCCCACTGTGCTAG | 1.39 |
| GACGGTATCGACACTGGGGATGTGCTA | -0.56 |
| TTAGAACTGGGGCATCGATTAGTGCTA | -0.447 |
| TCAAGTTTCCATTTTCAACTGTGCTAG | 7.59 |
| GACAGTATCGACACTGGGGACGTGCTA | -0.316 |
| GACGGATCCGGTTTCGGGACGTGCTAG | 4.97 |
| TCAGCCAGCTCTTTCGTACTGTGCTAG | -0.774 |
| GACGGTTTCCTTTCCCTGATGTGCTAG | 4.63 |
| TTAGATATCAGGTTCGATTAGTGCTAG | 1.75 |
| TTAGGTATCGACTTACGGTTAGTGCTA | 2.17 |
| TCATCTTTGCAGATAAAACTGTGCTAG | 0.389 |
| TTGTCTCCCCCATCTTGTTCCGTGCTA | 0.185 |
| GACGATATTAGTCTCGAGACGTGCTAG | 0.833 |

Block 3
Target: CCNA1, cyclin fold, Cln2 fusion (human)
Technique: yeast growth competition, sequencing
Medium: yeast
Setting: weak parent motif
Relative to: not given
Direction: higher = stronger binding
Parent: RB1 docking peptide (human); PKPLKKLRFDIEG; partner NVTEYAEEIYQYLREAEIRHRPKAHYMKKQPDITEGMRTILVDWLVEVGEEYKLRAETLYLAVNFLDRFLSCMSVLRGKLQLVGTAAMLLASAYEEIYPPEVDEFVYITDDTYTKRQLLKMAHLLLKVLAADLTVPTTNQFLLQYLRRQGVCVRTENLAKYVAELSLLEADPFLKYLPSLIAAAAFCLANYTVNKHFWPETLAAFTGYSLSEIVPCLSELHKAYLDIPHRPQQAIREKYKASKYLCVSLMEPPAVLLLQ
| Variant | normalised enrichment score |
| --- | --- |
| PKPLKKLRFHIEG [D10H] | 0.26 |
| PKPLKKLRFLIEG [D10L] | 0.0195 |
| PKPLKKLRFDAEG [I11A] | 0.408 |
| PKPLKKLRIDIEG [F9I] | 0.146 |
| PKPLKYLRFDIEG [K6Y] | -0.23 |
| PGPLKKLRFDIEG [K2G] | 0.0322 |
| PKPLKKLPFDIEG [R8P] | 0.377 |
| PKPLKKLRFDNEG [I11N] | 0.496 |
| PKPLTKLRFDIEG [K5T] | 0.299 |
| PMPLKKLRFDIEG [K2M] | 0.203 |
| PPPLKKLRFDIEG [K2P] | 0.0241 |
| PKPLKKLRFDIDG [E12D] | 0.151 |
| PKPLEKLRFDIEG [K5E] | 0.454 |
| PKPGKKLRFDIEG [L4G] | 0.237 |
| YKPLKKLRFDIEG [P1Y] | 0.0266 |
| PKPLKKLAFDIEG [R8A] | 0.42 |
| PKHLKKLRFDIEG [P3H] | -0.0872 |
| PKWLKKLRFDIEG [P3W] | 0.454 |
| PKPLKKLRFDDEG [I11D] | 0.0769 |
| PKPLKKLRFDEEG [I11E] | 0.418 |

Block 4
Target: UBE2J1 UBC core domain (UniProt Q9Y385)
Technique: yeast two-hybrid
Medium: yeast
Setting: mostly zero background
Relative to: not given
Direction: higher = stronger interaction
B1: TRIM41 RING domain (UniProt Q8WV44); chain PVQTLQEEAVCAICLDYFTDPVSIGCGHNFCRVCVTQLWGGEDEEDRDELDREEEEEDGEEE
B2: ARIH2 RING domain (UniProt O95376); chain HVPTSHPPHHCAVCMQFVRKENLLSLACQHQFCRSCWEQHCSVLVKDGVGVGVSCMAQDCPLRTPEDFVF
B3: HLTF RING domain (UniProt Q14527); chain LILSSGSDEECAICLDSLTVPVITHCAHVFCKPCICQVIQNEQPHAKCPLCRNDIHEDNLLE
B4: NFX1 RING domain (UniProt Q12986); chain IEQLTTEKYECMVCCELVRVTAPVWSCQSCYHVFHLNCIKKWARSPASQADGQSGWRCPACQNVSAHVPNTY
B5: VPS8 RING domain (UniProt Q8N3P4); chain TRGLNPKQDYCSICLQQYKRRQEMADEIIVFSCGHLYHSFCLQNKECTVEFEGQTRWTCYKCSSSNKVGKLSE
B6: TRIM11 RING domain (UniProt Q96F44); chain LSTNLQEEATCAICLDYFTDPVMTDCGHNFCRECIRRCWGQPEGPYACPECRELSPQRNLRP
B7: RNF186 RING domain (UniProt Q9NXI6); chain HSGSTECDLECLVCREPYSCPRLPKLLACQHAFCAICLKLLLCVQDNTWSITCPLCRKVTAVPGGLI
B8: RNF182 RING domain (UniProt Q8N6D2); chain AESQASDELECKICYNRYNLKQRKPKVLECCHRVCAKCLYKIIDFGDSPQGVIVCPFCRFETCLPDDEV
Target sequence (chain): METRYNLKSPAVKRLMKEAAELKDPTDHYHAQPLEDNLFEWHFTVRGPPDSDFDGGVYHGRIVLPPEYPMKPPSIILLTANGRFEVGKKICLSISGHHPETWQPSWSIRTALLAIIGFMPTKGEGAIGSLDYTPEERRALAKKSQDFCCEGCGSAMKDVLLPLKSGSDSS
| Sequence | lacZ reporter activity |
| --- | --- |
| B1 (TRIM41 RING domain) | 0 |
| FAEQPSVKLCCQLCCSVFKDPVITTCGHTFCRRCALKSEKCPVDNVKLTVVVNNI (TRAF7 RING domain (UniProt Q6Q0C0)) | 0 |
| B2 (ARIH2 RING domain) | 0 |
| B3 (HLTF RING domain) | 0 |
| ASPKIFQKTKCSICNSALELPSVHFLCGHSFHQHCFESYSESDADCPTCLPENRKVMDMI (VPS11 RING domain (UniProt Q9H270)) | 0 |
| B4 (NFX1 RING domain) | 0 |
| B5 (VPS8 RING domain) | 0 |
| LEALSSDFLACKICLEQLRAPKTLPCLHTYCQDCLAQLADGGRVRCPECRETVPVPPEGV (TRIM56 RING domain (UniProt Q9BRZ2)) | 0 |
| B6 (TRIM11 RING domain) | 0 |
| B7 (RNF186 RING domain) | 0 |
| B8 (RNF182 RING domain) | 0 |

Block 5
Target: ABI1, truncated, D143A, DHFR fusion (Arabidopsis thaliana)
Technique: DHFR PCA, deep sequencing
Medium: yeast
Setting: methotrexate growth selection, single substitutions
Added: (+)-ABA 58 µM
Relative to: wild-type fitted maximum
Direction: higher = stronger binding
Parent: PYL1, truncated, DHFR fusion (Arabidopsis thaliana); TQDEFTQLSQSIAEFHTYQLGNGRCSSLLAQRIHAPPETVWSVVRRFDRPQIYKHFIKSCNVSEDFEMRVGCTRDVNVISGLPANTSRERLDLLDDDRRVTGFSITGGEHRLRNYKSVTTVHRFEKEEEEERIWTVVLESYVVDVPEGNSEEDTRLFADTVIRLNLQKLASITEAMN; partner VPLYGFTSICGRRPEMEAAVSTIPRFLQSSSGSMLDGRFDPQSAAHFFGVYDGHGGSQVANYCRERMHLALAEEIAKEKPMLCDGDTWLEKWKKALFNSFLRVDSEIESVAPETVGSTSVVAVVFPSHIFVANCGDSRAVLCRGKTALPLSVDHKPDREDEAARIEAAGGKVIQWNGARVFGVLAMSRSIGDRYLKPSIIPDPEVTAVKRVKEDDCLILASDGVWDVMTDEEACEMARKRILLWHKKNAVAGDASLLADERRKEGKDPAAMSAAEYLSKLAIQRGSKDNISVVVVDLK
| Variant | relative binding score [%] |
| --- | --- |
| S171Y | 75.4 |
| R69E | 83.9 |
| D96G | 21.3 |
| V161W | 27.5 |
| V70P | 88.9 |
| M176D | 81.6 |
| V137G | -3.39 |
| H55W | 77.7 |
| S80Y | 29.7 |
| R98W | 31.8 |
| I162C | 64.8 |

Repeated from above (block 3):
| Variant | normalised enrichment score |
| --- | --- |
| PKPLKKLRFLIEG [D10L] | 0.0195 |
| PKPLKKLRFDAEG [I11A] | 0.408 |
| PKPLKKLRIDIEG [F9I] | 0.146 |
| PKPLKYLRFDIEG [K6Y] | -0.23 |
| PGPLKKLRFDIEG [K2G] | 0.0322 |
| PKPLKKLPFDIEG [R8P] | 0.377 |
| PKPLKKLRFDNEG [I11N] | 0.496 |
| PKPLTKLRFDIEG [K5T] | 0.299 |
| PMPLKKLRFDIEG [K2M] | 0.203 |
| PPPLKKLRFDIEG [K2P] | 0.0241 |
| PKPLKKLRFDIDG [E12D] | 0.151 |
| PKPLEKLRFDIEG [K5E] | 0.454 |
| PKPGKKLRFDIEG [L4G] | 0.237 |
| YKPLKKLRFDIEG [P1Y] | 0.0266 |
